Assay results of several laboratories.
Parts stem from different laboratories: compare values within a part only. Substitutions count along the parent as printed.

Series 1 — method: protein binding microarray; molecule type: double-stranded DNA, one strand shown; medium: in vitro; concentration: not given; baseline: not given; reading: higher = stronger binding
Target: Histone acetyltransferase KAT6A, both winged helices, GST fusion (KAT6A, Homo sapiens, UniProt Q92794, residues 1-181)
Setting: 8-mer, flanks averaged, mean of 2 arrays, mostly near background
Residues (chain): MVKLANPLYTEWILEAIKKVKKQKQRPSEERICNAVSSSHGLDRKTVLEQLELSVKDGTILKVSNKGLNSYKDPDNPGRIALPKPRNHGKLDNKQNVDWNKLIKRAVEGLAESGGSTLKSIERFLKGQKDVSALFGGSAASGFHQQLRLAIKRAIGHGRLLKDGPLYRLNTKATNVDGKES
| Strand | E-score |
| --- | --- |
| GCCCTACC | -0.025 |
| CATGTCAG | -0.134 |
| CAATAGAA | -0.0776 |
| CCATTTGC | -0.131 |
| AAGATGCA | -0.219 |

Series 2 — method: RNA Bind-n-Seq; molecule type: RNA; medium: in vitro; concentration: 1 µM; setting: whole 134-nt RNA, ends assumed; added: 150 mM KCl; baseline: input library; reading: higher = stronger binding
Target: Ras GTPase-activating protein-binding protein 1, C-terminal RGG region (G3BP1, Homo sapiens, UniProt Q13283)
Sequence of UniProt Q13283 (whole entry, looked up): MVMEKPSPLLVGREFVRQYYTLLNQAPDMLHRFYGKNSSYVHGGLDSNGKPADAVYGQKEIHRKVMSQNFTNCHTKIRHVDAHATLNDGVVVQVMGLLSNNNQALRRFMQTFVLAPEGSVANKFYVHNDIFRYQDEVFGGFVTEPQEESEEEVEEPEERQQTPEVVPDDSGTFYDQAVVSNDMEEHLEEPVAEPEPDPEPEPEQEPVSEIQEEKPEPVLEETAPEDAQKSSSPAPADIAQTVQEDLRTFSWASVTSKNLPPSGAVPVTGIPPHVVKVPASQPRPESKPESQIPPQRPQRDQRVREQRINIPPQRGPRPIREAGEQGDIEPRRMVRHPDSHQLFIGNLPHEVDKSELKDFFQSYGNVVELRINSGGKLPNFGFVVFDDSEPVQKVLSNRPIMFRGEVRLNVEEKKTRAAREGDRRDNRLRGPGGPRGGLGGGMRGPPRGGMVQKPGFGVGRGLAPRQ
Shared flanks, not repeated: GGGAGUUCUACAGUCCGACGAUC … UGGAAUUCUCGGGUGUCAAGG
| Strand | log2 enrichment |
| --- | --- |
| AAGUCCUGUGCUACACAUCGUAUGUACCGAAUCGGGCCCCGGGGCCCCGGCCCCGGGAAAGUAUUAUGUUACGCCGUUCGGAUCUGCACU | -2.47 |
| GUCCUGUGCUACACAUCGUAUGUACCGAAUCGGGGAAAAAGGGGUGGGGUUUUUGGGGAAAGUAUUAUGUUACGCCGUUCGGAUCUGCAC | 1.3 |
| UAACUUUAGAGGAGGAUCUGAUGGAUAUGGCAGUGGACGUGGAUUUGGGGAUGGCUAUAAUGGGUAUGGAGUAGGACCUGGAGGUGGCAA | -0.409 |
| AGUAGCUAUGGUCAACAAAGCAGCUAUGGGCAGCAGCCUCCCACUAGUUACCCACCCCAAACUGGAUCCUACAGCCAAGCUCCAAGUCAA | -0.224 |
| UUAAGACAGUCAUUUUAAAAUGGUGGCUGAAUUUCCCAACCCACCCCCAAACUAAACACUAAGUUUAAUUUUCAGCUCCUCUGUUGGACA | -0.262 |
| CAAGUCCUGUGCUACACAUCGUAUGUACCGAAUCGGAAAAGGAAAAGGGGAAAAGGAAAGUAUUAUGUUACGCCGUUCGGAUCUGCACUU | -1.78 |
| UCCUGUGCUACACAUCGUAUGUACCGAAUCGGAAAAAAGGAAAAAAGGGGAAAAAAGGGAAAGUAUUAUGUUACGCCGUUCGGAUCUGCA | -1.42 |

Series 3 — target: CCNE2, cyclin fold, Cln2 fusion (human); method: yeast growth competition, sequencing; medium: yeast; setting: weak parent motif; baseline: not given; reading: higher = stronger binding
Starting sequence: CDC6 docking peptide (human); TLKGRRLVFDNQL
| Substitution | normalised enrichment score |
| --- | --- |
| L2N | 0.0746 |
| N11I | 0.163 |
| K3E | -0.192 |
| R6Y | 0.309 |
| D10T | 0.47 |
| F9E | 0.546 |

Mixed results
| Substance | target | test | system | setting | how to read | measurement | result |
| --- | --- | --- | --- | --- | --- | --- | --- |
| PhoQ, residues 284 288 289 292 302 303 ASVMEA | PhoP, residues 12 14 15 18 19 LWHVM (Escherichia coli, UniProt P23836) | Sort-seq, item: YFP reporter | E. coli | PhoQ-PhoP variant library, added: 10 µM Mg2+ | baseline: high Mg2+ state, higher = stronger signaling | fold induction | 28.4 |

Some of these lines once more (series 3):
| Substitution | normalised enrichment score |
| --- | --- |
| K3E | -0.192 |
| R6Y | 0.309 |
